Measured values from different studies.
Numbers after ± are the reported error.
EGFR L858R/T790M: Epidermal growth factor receptor (EGFR, Homo sapiens, UniProt P00533, L858R/T790M)
EGFR: Epidermal growth factor receptor (EGFR, Homo sapiens, UniProt P00533)
Chain of UniProt P49116 (whole entry, looked up): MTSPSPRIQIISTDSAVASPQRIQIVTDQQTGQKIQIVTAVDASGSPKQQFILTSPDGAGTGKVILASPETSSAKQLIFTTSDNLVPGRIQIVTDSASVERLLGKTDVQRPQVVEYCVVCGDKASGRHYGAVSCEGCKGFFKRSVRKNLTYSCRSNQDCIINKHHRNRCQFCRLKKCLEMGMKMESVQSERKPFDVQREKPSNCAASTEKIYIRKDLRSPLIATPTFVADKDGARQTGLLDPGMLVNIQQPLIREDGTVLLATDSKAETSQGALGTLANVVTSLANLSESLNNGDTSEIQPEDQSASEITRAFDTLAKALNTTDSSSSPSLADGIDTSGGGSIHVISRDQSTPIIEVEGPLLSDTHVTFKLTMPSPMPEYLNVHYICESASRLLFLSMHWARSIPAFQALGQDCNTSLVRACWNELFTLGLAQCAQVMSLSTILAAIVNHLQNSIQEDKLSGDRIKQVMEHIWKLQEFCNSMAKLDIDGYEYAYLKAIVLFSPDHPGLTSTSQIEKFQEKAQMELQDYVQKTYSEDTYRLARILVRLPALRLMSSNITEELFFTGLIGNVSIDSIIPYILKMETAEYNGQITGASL

`COc1cc(-c2cncc3c2CN(C)Cc2cc(N4CCNCC4)ccc2-3)cc(OC)c1OC` has a remaining activity of 103% (EGFR (Homo sapiens, UniProt P00533, T790M); kinase activity; 1 µM, added: ATP 10 µM; relative to: DMSO control).
`CCCOc1ccc(OC)c(F)c1C(=O)c1ccc(C(=O)N[C@@H]2CNC[C@H]2NC(=O)c2ccc3[nH]ncc3c2)cc1` has a remaining activity of 67% (EGFR L858R/T790M; enzyme activity; 10 µM).
`COc1cc2c(cc1-c1c(C)noc1C)ncc1[nH]c(=O)n([C@H](C)c3ccccn3)c12` has a viability of 25.4% (OCI-Ly1; 1 µM, 120 h).
`Cc1cc(Nc2cc(N3CCN(C)CC3)nc(Sc3ccc(NC(=O)C4CC4)cc3)n2)[nH]n1` has a remaining activity of 109% (EGFR; kinase activity, KinaseProfiler; 0.03 µM, species human; relative to: control).
`O=C(NC1CCC1)c1ccc2nc(-c3cccc(NS(=O)(=O)NCCN4CCCCC4)c3)cn2c1` has a remaining activity of 92% (EGFR L858R/T790M; enzyme activity; 10 µM).
For `Nc1ncnc2c1ncn2[C@@H]1O[C@H](C[C@@H](N)CC[C@H](N)C(=O)O)[C@@H](O)[C@H]1O`, the viability was 118% (OCI-Ly1; 1 µM, 120 h).
`Cn1nnc2c(C(N)=O)ncn2c1=O` has a Kd of 18.2 nM (Nuclear receptor subfamily 2 group C member 2, ligand-binding domain (Homo sapiens, UniProt P49116); SPR imaging).
With `CCOc1cc(N2CCN(C)CC2)ccc1Nc1nc(N)n(C(=O)NCc2ccccc2S(=O)(=O)C(C)C)n1` the remaining activity was 6.3% (EGFR (Homo sapiens, UniProt P00533, del747-752/P753S); enzyme activity; 10 µM; relative to: control).
`CC#CC(=O)N1CCC[C@H]1c1nc(-c2ccc(C(=O)Nc3ccccn3)cc2)c2c(N)nccn12` has a remaining activity of 95.9 ± 1.2% (EGFR; kinase activity, inhibitor, HotSpot radiometric; 100 nM, added: ATP 10 µM).
With `COc1cc(N2CCN(C)CC2)ccc1Nc1nc(N)n(C(=O)NCc2ccccc2S(=O)(=O)C(C)C)n1` the remaining activity was 9.4% (EGFR (Homo sapiens, UniProt P00533, del752-759); enzyme activity; 10 µM; relative to: control).
`COc1ccc(F)cc1C(=O)NCc1ccc(-c2nn([C@@H](C)C(F)(F)F)c(N)c2C(N)=O)cc1` has a remaining activity of 60.6 ± 0.6% (EGFR; kinase activity, inhibitor, HotSpot radiometric; 1000 nM, added: ATP at Km).
`COc1cc(N2CCN(C)CC2)ccc1Nc1nc(N)n(C(=O)NCc2c(Cl)cccc2Cl)n1` gave a remaining activity of 13% (EGFR (Homo sapiens, UniProt P00533, G719C); enzyme activity; 10 µM; relative to: control).
`COc1cc(F)ccc1-c1ncnc(Nc2cccc(C[S@](C)(=N)=O)c2)n1` gave a remaining activity of 96% (EGFR; kinase activity; 10 µM, added: 10 µM ATP).
`Cc1[nH]c(/C=C2\C(=O)Nc3ccc(F)cc32)c(C)c1C(=O)N[C@H]1CCN(C(=O)N(C)C)C1` has a remaining activity of 114% (EGFR; kinase activity; 0.1 µM; relative to: control).
`COc1cc(N2CCN(C)CC2)ccc1Nc1nc(N)n(C(=S)NCc2c(Cl)cccc2Cl)n1` gave a remaining activity of 0.4% (EGFR (Homo sapiens, UniProt P00533, L861Q); enzyme activity; 10 µM; relative to: control).
